Measured values pooled from the literature.
Every numbered part comes from another study and shows a few of its results, in no order. Changes are numbered by the printed parent chain.

Block 1
Target: Histone acetyltransferase KAT6A, both winged helices, GST fusion (KAT6A, Homo sapiens, UniProt Q92794, residues 1-181)
Method: protein binding microarray
Form: double-stranded DNA, one strand shown
Matrix: in vitro
Tested at: not given
Notes: 8-mer, flanks averaged, mean of 2 arrays, mostly near background
Baseline: not given
Reading: higher = stronger binding
Target sequence (chain): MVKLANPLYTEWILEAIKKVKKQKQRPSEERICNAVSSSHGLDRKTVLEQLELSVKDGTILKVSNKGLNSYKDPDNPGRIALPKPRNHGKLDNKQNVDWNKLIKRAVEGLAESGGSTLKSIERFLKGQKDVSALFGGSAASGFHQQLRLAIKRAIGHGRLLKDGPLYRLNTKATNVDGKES
With `ACGCGGCC` the E-score was 0.214.
`CGCTGTAA` has an E-score of 0.18.
`ACAGGCCC` gave an E-score of -0.0817.
For `ATCTAAAG`, the E-score was -0.136.
With `AAGTACTC` the E-score was -0.0709.
With `ACTTGCTA` the E-score was -0.173.
`AGAGTAAG` gave an E-score of -0.152.
`AGATAACC` gave an E-score of -0.0614.
`AATCCTTA` has an E-score of -0.242.
For `ACGCAAAT`, the E-score was 0.0788.
With `CTAAAAAC` the E-score was 0.0968.
`GGTTCAGA` gave an E-score of -0.113.
With `ATCAAAGC` the E-score was -0.018.
The E-score of `TCTGAAAA` is reported as -0.163.
`AAGCGTAG` gave an E-score of 0.0471.
For `ACGGACGT`, the E-score was 0.143.

Block 2
Target: ABI1, truncated, D143A, DHFR fusion (Arabidopsis thaliana)
Method: DHFR PCA, deep sequencing
Matrix: yeast
Notes: methotrexate growth selection, single substitutions
With: (+)-ABA 710 µM
Baseline: wild-type fitted maximum
Reading: higher = stronger binding
Starting sequence: PYL1, truncated, DHFR fusion (Arabidopsis thaliana); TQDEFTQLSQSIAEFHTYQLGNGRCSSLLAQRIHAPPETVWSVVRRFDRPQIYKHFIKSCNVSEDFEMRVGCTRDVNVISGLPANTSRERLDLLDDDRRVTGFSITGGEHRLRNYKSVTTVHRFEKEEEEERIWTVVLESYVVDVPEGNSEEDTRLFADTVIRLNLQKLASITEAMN; partner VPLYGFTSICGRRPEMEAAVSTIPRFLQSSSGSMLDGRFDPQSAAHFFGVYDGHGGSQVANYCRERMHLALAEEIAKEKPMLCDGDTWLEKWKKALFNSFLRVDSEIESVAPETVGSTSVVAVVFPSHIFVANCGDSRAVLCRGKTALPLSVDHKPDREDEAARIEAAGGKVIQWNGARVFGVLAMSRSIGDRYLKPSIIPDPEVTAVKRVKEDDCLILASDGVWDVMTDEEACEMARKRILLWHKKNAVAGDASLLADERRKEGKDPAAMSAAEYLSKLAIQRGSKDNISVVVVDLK
`H122Y`: “relative binding score” 38.1%.
`N114A`: “relative binding score” 93.9%.
For `V121P`, “relative binding score” read 2.95%.
For `W41L`, “relative binding score” read -2.21%.
`E152P`: “relative binding score” 89.5%.
Under “relative binding score”, `I172G` is recorded as 62%.
`F66S` — result for “relative binding score”: 99.7%.
`Q31P`: “relative binding score” -8.7%.
For `V142I`, “relative binding score” read 94.2%.
`C72R`: “relative binding score” 89%.
`R113T`: “relative binding score” 103%.
`S171A`: “relative binding score” 102%.
For `E14G`, “relative binding score” read 87%.
`R69M`: “relative binding score” 98.9%.
For `R113V`, “relative binding score” read 110%.

Block 3
Target: Prothrombin, mature alpha-thrombin (F2, Homo sapiens, UniProt P00734)
Method: aptamer microarray, sandwich
Form: DNA with 2'F-ANA
Matrix: in vitro
Tested at: 200 nM
Notes: whole 15-mer aptamer, many near background
With: Cy3 exosite-II aptamer, 400 nM
Reading: higher = stronger binding
Oligonucleotide: GGTTGGTGTGGTTGG
`2'F-ANA at 1 2 3 4 6 7 8 10 12 13 14`: “mean fluorescence intensity” 55.5 a.u.
Under “mean fluorescence intensity”, `2'F-ANA at 1 2 4 9 13 15` is recorded as 79.6 a.u.
`2'F-ANA at 2 3 5 7 8 9 12 14 15` — result for “mean fluorescence intensity”: 59.1 a.u.
For `2'F-ANA at 5 8 9 12 13`, “mean fluorescence intensity” read 103 a.u.
`2'F-ANA at 3 6 8 11 14`: “mean fluorescence intensity” 565 a.u.
`2'F-ANA at 2 3 4 5 7 9 14 15` — result for “mean fluorescence intensity”: 76.9 a.u.
`2'F-ANA at 1 2 5 11 13 14`: “mean fluorescence intensity” 47.7 a.u.
`2'F-ANA at 2 3 7 8 9 11 13` — result for “mean fluorescence intensity”: 732 a.u.
For `2'F-ANA at 1 2 4 7 8 9 12 13 15`, “mean fluorescence intensity” read 214 a.u.
`2'F-ANA at 3 5 9 10 11 12 13 14` — result for “mean fluorescence intensity”: 55.9 a.u.
`2'F-ANA at 5 11 13 15`: “mean fluorescence intensity” 54.9 a.u.
For `2'F-ANA at 2 3 5 7 9 11 14`, “mean fluorescence intensity” read 53.3 a.u.
Under “mean fluorescence intensity”, `2'F-ANA at 2 4 5 8 12 13 14` is recorded as 48.4 a.u.
`2'F-ANA at 2 3 4 6 7 10 12 13 14` — result for “mean fluorescence intensity”: 160 a.u.
`2'F-ANA at 1 4 6 8 10 15` — result for “mean fluorescence intensity”: 69 a.u.
`2'F-ANA at 1 3 4 6 7 12 14 15` — result for “mean fluorescence intensity”: 84.2 a.u.

Block 4
Target: Fragile X messenger ribonucleoprotein 1, C-terminal low-complexity region (Fmr1, Mus musculus, UniProt P35922)
Method: RNA Bind-n-Seq
Form: RNA
Matrix: in vitro
Tested at: 200 nM
Notes: whole 134-nt RNA, ends assumed
With: 150 mM KCl
Baseline: input library
Reading: higher = stronger binding
For `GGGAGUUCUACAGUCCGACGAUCAUAGAUUGCGCAGUCUCUUUGUGGAGAGGACUUGAUCAUUAAAGGAAUCAGCGUUCAUAUAUCCAAUGCCGAACCUAAGCACAAUAGCAAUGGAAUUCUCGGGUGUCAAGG`, the log2 enrichment was 0.212.
`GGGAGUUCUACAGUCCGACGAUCCUCAAGUCCUGUGCUACACAUCGUAUGUACCGAAUCGGGAAAGGAAAGGAAAGGAAAGUAUUAUGUUACGCCGUUCGGAUCUGCACUUCCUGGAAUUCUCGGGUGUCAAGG` has a log2 enrichment of -0.467.
The log2 enrichment of `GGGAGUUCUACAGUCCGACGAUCACCAUGCAGGUGGGCAUCUUUGGGAAGUGGGGCAAGGGGGGGAUAGGGAGGGGUGUAACACUUUGGGAACAGGUGGUCCCAGGUCGUUUCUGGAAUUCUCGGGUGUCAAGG` is reported as 0.764.
With `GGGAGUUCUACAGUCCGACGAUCCACAGACAACACGCACCCACACAGACACAGAGGGAAGGGGUUGGGAUGGGGACAUGGUGCACAGCAGGGCGGGGUAGGACCCCAGCCCCUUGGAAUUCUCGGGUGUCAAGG` the log2 enrichment was 1.16.
With `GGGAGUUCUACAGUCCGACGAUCUGGGAGGUGGAUUUUGUUUAUUUUUUUAGCUCAUUUCCAGGGGUGGGAAUUUUUUUGUAAUAUGUGUCAUGAAUAAAGUUGUUUUUGAAAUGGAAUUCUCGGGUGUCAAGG` the log2 enrichment was 0.44.
With `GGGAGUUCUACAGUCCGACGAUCCCUCAAGUCCUGUGCUACACAUCGUAUGUACCGAAUCGGGGAGGGAGGGAGGGAAAGUAUUAUGUUACGCCGUUCGGAUCUGCACUUCCAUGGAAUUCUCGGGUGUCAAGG` the log2 enrichment was 1.18.
With `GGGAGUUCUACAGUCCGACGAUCUGCAUCUGCACUGGAGAAAUGGAAGACAGCAAUCCGGGAAGCUCAGACUUUCUCCAGGAUGCACGUGCUGCUUGGGAUGCUUGAUGCCUGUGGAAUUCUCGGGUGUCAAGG` the log2 enrichment was -0.208.
The log2 enrichment of `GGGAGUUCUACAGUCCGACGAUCGUCCUGUGCUACACAUCGUAUGUACCGAAUCGGGGAAAAAGGGGAAAGGGGAAAGGGGAAAGUAUUAUGUUACGCCGUUCGGAUCUGCACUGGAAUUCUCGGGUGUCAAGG` is reported as 0.447.
`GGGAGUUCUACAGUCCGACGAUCUCAAGUCCUGUGCUACACAUCGUAUGUACCGAAUCGGAAAAAAAGGUGGAAAGGAAAGUAUUAUGUUACGCCGUUCGGAUCUGCACUUCCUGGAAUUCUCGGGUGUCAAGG` gave a log2 enrichment of -0.522.

Other studies, line by line
P1: CDAN1 docking peptide (human); RGARSQLFPPTEA; partner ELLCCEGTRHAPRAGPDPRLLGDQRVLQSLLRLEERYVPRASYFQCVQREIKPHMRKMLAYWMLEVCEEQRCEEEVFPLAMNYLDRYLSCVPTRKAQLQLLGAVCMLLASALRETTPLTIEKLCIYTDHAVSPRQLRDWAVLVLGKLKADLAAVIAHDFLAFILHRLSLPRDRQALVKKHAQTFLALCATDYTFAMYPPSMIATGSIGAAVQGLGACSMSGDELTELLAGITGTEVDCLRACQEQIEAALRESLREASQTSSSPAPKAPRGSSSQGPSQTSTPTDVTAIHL
Under “binding enrichment score”, `GSPLKKLFTATGL` is recorded as 0.408 (human cyclin B2; peptide binding, yeast competitive growth sequencing; peptide, Saccharomyces cerevisiae, cyclin B2-Cln2 fusion; concentration not given, combined libraries; direction not given).
Under “normalised enrichment score”, `P1 L7A` is recorded as 0.196 (CCND3, cyclin fold, Cln2 fusion (human); yeast growth competition, sequencing; yeast; weak parent motif; baseline: not given, higher = stronger binding).
`KLLPRKLQFFCDP`: “growth enrichment score” -0.114 (Saccharomyces cerevisiae; binding, competitive growth deep sequencing; peptide, cyclin D3-Cln2 fusion strain; concentration not given, Cln2 score subtracted; direction not given).
Under “growth enrichment score”, `GSPLKKLFTSTAL` is recorded as -0.145 (Saccharomyces cerevisiae; binding, competitive growth deep sequencing; peptide, cyclin E1-Cln2 fusion strain; concentration not given, combined peptide libraries; direction not given).

Some of these lines once more (block 3):
For `2'F-ANA at 1 2 4 7 8 9 12 13 15`, “mean fluorescence intensity” read 214 a.u.
`2'F-ANA at 3 5 9 10 11 12 13 14` — result for “mean fluorescence intensity”: 55.9 a.u.
`2'F-ANA at 5 11 13 15`: “mean fluorescence intensity” 54.9 a.u.
For `2'F-ANA at 2 3 5 7 9 11 14`, “mean fluorescence intensity” read 53.3 a.u.
Under “mean fluorescence intensity”, `2'F-ANA at 2 4 5 8 12 13 14` is recorded as 48.4 a.u.
